Experimental data pooled from the literature.
Each numbered part is a random draw from the data of one study; scales do not carry over between parts. Positions count from the first letter of the parent shown.

Sample 1
Target: Interferon regulatory factor 7, full length, phosphomimetic (IRF7, Homo sapiens, UniProt Q92985, residues 1-503, S101K/S471D/S472D/S475D/S476D/S477D/S483D/S484D/S487D)
Chain of UniProt Q92985 (whole entry, unmodified, looked up): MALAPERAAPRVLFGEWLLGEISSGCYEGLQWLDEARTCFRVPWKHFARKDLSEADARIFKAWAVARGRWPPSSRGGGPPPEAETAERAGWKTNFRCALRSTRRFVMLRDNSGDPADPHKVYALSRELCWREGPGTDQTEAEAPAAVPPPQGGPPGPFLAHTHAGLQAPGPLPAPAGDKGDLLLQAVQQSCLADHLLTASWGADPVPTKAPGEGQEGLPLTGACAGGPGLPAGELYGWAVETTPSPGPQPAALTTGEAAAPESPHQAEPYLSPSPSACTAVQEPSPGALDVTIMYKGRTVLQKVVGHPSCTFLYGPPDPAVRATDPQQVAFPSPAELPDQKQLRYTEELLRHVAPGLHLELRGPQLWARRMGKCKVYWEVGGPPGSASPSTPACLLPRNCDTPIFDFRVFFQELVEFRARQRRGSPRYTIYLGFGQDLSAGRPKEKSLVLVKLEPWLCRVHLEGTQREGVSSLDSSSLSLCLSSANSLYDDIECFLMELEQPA
Method: protein-binding microarray
Form: double-stranded DNA, one strand shown
Medium: in vitro
Concentration: 250 nM
Setting: 60-bp whole probe
With: salmon DNA 0.4 mg/ml
Relative to: random background probes
Direction: higher = stronger binding
Shared flanks, not repeated: GCCTAGCAC … GTCTTGATTCGCTTGACGCTGCTG
Sequence | log fluorescence [z-score]
TTTGTTTCCATTTTCTGAATGTGCTAG | 6.16
TTAGGTTTTCTTTTCCTTTAGTGCTAG | 3.22
TTTTGCTTTCCTTTATGTACGTGCTAG | 2.35
TCATCTTTACTGCTCCAACTGTGCTAG | 0.46
TTAGATCTCAGACTGGATTGGTGCTAG | -0.282
GTCGTCACTGCCATAATGCGGTGCTAG | -0.494
TTAGGTTTCGGTCTGGGTTAGTGCTAG | 7.83
TGTTGTCTTAGATTCCTTTGGTGCTAG | 1.11
GACGATTTCAGTTGCGAGACGTGCTAG | 0.345
TTTCGTATCTTCATTGTCATGTGCTAG | 5.16
GACGGTTTCGTGTATCGGGACGTGCTA | 5.5
TCATATACCCATGTAGAACTGTGCTAG | 0.738
GACGAACTGAGTATCTAGACGTGCTAG | -0.407
AGATATTTAGAACTTCTCCACGTGCTA | -0.31
GACGAACTGAGACCGGAGACGTGCTAG | -0.0816
TAAGGTATCGGGTTTCGGTTAGTGCTA | 7.5
TTAGGTCTCTGTATCGGTTAGTGCTAG | 0.672

Sample 2
Target: CCNA2, cyclin fold, Cln2 fusion (human)
Method: yeast growth competition, sequencing
Medium: yeast
Setting: strong parent motif
Relative to: not given
Direction: higher = stronger binding
Starting sequence: E2F1 docking peptide (human); PPVKRRLDFETDH; partner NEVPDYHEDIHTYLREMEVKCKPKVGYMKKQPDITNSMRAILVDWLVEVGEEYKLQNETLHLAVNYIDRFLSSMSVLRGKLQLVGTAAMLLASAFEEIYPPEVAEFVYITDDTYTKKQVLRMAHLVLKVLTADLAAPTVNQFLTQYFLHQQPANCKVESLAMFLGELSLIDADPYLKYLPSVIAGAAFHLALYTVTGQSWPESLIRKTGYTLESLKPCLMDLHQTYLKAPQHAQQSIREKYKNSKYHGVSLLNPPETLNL
Change | normalised enrichment score
PPVKRREDFETDH [L7E] | -0.0958
PPVKRPLDFETDH [R6P] | 2.76
PPVFRRLDFETDH [K4F] | 5.04
PPVKRRLFFETDH [D8F] | 6.52
PEVKRRLDFETDH [P2E] | 5.79
PPVKRRLDFEMDH [T11M] | 5.85
PPVKRCLDFETDH [R6C] | 5.55
PPYKRRLDFETDH [V3Y] | 4.65
PPVKRRLDDETDH [F9D] | -0.382

Sample 3
Target: RING finger protein unkempt homolog, zinc fingers 1-6, GST-SBP tag (UNK, Homo sapiens, UniProt Q9C0B0, residues 30-357)
Method: RNA Bind-n-Seq
Form: RNA
Medium: in vitro
Concentration: not given
Setting: RNA with constant flanks, ends assumed
Relative to: input RNA pool
Direction: higher = stronger binding
Construct (chain): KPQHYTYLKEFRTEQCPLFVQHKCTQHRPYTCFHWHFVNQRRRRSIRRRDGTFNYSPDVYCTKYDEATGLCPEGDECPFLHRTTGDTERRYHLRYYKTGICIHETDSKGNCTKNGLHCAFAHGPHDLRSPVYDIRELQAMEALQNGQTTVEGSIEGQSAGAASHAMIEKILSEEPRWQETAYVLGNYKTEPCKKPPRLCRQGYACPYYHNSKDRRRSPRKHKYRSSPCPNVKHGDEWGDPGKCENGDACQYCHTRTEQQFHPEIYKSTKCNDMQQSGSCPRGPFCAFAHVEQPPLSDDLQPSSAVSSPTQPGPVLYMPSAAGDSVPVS
Sequence | bound/input enrichment
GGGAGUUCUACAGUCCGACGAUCAUUUUUUCAGUGUGCCCCAAGGGCAUUAAUGAGCCUUUAUAACUGAGAAAUGAUUCUUGUUACCGUAAUUAUUCCAUAAAUGAUACCACUAGAUAAAUUACCUUGGGUUAAUAGCUCCAGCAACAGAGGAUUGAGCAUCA | 3.35 ratio
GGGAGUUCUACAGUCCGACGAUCCUUCAGCAAGGUGGCCGCAUGCUCCCUGAGCUCUUCCAGUGUCACGGCUCUGCAGAUAACCCCGUUCUGCAUGCUUGGGGCAAGGAGACAAACUCAAAACUGAAAUCUCUAGGAGUGAGCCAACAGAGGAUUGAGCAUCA | 0.0992 ratio
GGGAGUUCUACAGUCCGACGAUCGGUGGCGGCCAGUGGCUGAACUCCAGUUGCGCUUGGUCAGAAUCUUCUCAAUUGAAUAAGACCCGAAGUAUCAGACGGCGAGAUUCCUGUCUAAAUUCCAAGACAAAGGUUAUGCCUACUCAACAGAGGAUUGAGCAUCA | 0.0991 ratio
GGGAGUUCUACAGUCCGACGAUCGGGCGCUCUGCAUCCAGGUGCCAUUCAUCAGAAAAUAAAAAUGUCUCCUUGAACCUAUCCCUCCGGGCCUGCUUCCUGGAAUCCAAGGGACUAGGAACUCUCUGAGUCACAGGACUCCCACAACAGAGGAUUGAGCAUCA | 0.41 ratio
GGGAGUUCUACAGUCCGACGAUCUCCGAGGGCAGCGGUGGGAGCACACCCGGCUGGCACACGAGGGAGGAGCAGCCGCCGUCGGCCGCUGAGGGCUACGCCUCGCAGGACGUGUUCAGCGCCACCGAGACCAGCCUGUGGUACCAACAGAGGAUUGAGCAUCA | 0.164 ratio
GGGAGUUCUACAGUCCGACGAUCAUCCUUUCUGGCACAUCUGACCUACUGCUUACCUUCGAUGAGGCUGAGGUUCGUAAAAUUAUCCGGGUUUGCAAAGGAAUUUUGGAAUAUCUUACAGUGGCAGAGGUAGUGGAAACUAUGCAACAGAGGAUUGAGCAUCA | 0.223 ratio
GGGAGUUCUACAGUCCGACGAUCGAUUGCUGGCGAGGAGGAGGAGUUCAUGUAGUGUUUGAGUGAAGCUUGAGUCACCAUGAGCCGCCGUUUAGGAAAAGAAAAAGACUCUAAAGAGAAAGACCCCAAAGUACCGUCUGCCAACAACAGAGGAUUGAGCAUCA | 0.336 ratio
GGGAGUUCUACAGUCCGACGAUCAGUAAAAAUCUACCAAUUCUCAGGCACCAGGGUCAGCAGUUGGCCAACAAAUUGCAGUGUCCUUUUGCCGACGUACCUACUGGUACAUAUCCUCGUAAAUUUAAUGAAUCACAAAUAAAGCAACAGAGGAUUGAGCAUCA | 0.521 ratio
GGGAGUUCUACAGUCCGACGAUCCGGUCUCUUCCAUCUCCUUCCUCUGCUCACUUGGCUGCUUUAAGUGUUGCAGUUGUUGAGUCCGCAAAAGAACAAGGAAUAACAGAUGAUGACCUCAGAAUCCGCCAGGACAUUGUGGAGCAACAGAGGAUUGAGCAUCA | 0.0877 ratio
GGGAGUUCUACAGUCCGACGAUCAUUUUUUUUUUUUUUUUUUUAAGAAUAUCUGUAAUGGUACUGACUUUGCUUGCUUUGAAGCCGCUCUUUUUUUUUUUUUUUUUUUUUUUUUGCAGUAACUGUUUUUUAAGUCUCUCGUAGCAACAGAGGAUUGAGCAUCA | 1.74 ratio
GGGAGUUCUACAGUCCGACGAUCUAUCUUAAUGACUUGGACCGCGUAGCUGACCCUGCCUACCUGCCUACGCAACAAGAUGUGCUCCGAGUUCGAGUCCCCACCACAGGGAUCAUCGAAUACCCCUUUGACUUACAAAGUGUCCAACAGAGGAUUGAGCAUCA | 0.128 ratio

Sample 4
Target: Sal-like protein 4, full length isoform A (SALL4, Homo sapiens, UniProt Q9UJQ4, residues 1-1053)
Chain of UniProt Q9UJQ4 (whole entry, looked up): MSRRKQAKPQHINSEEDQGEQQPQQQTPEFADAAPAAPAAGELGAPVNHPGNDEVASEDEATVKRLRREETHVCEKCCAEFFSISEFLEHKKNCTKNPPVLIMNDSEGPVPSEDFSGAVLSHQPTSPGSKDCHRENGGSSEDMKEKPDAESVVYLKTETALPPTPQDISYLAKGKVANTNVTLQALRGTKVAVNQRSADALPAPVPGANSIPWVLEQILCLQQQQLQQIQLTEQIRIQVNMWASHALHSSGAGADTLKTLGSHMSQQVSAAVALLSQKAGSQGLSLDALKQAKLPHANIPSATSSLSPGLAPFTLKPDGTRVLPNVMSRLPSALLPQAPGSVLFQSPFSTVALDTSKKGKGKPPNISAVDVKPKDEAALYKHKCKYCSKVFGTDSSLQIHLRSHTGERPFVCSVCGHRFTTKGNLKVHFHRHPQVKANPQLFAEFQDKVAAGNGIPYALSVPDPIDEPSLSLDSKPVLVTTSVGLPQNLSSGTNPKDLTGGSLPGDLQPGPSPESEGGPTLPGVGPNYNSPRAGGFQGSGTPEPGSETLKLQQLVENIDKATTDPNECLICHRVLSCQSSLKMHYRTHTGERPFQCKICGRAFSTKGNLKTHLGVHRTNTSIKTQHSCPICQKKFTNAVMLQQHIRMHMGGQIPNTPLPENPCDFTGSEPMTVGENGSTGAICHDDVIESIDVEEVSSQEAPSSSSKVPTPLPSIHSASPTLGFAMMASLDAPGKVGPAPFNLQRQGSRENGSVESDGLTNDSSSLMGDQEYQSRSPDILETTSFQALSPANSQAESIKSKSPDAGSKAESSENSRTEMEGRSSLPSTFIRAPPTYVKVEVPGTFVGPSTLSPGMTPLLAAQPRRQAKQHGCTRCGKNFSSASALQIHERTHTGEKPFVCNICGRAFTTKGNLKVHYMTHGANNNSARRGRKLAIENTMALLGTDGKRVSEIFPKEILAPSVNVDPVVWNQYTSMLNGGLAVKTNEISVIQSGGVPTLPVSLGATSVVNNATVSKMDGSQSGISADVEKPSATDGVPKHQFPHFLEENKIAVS
Method: universal PBM
Form: double-stranded DNA, one strand shown
Medium: in vitro
Concentration: 600 nM
Setting: 8-mer, flanks averaged, mean of replicates
Direction: higher = stronger binding
Sequence | E-score
GTAATTAC | 0.278
CCCCACCG | -0.269
ACATCCTG | 0.158
GTAAGGAA | -0.0404
ACTGGCCC | -0.18
CAGCATTA | 0.177
CCTCGGGC | -0.299
GTAGGATA | -0.0233
GCACTCTA | -0.0395
CCTGCTAA | -0.108
GGATTAGA | 0.0151
AATTGGCA | 0.108
CACTCTCG | -0.0972
GCCTAAAA | -0.066
ACGATAAA | 0.227
GCGTAGCA | -0.111
TAAGTCGA | 0.105
ATGTTGCA | 0.118
ACCCCCCG | -0.291
ACTCTTAC | 0.194
CGGTAGGC | -0.301
GCTAGGCA | -0.0995
ATTTCGTG | 0.0978
TATTCACA | 0.238
GCAAAAGA | 0.00372

Sample 5
Target: Histone acetyltransferase KAT6A, winged helix 1, GST fusion (KAT6A, Homo sapiens, UniProt Q92794, residues 1-85)
Method: protein binding microarray
Form: double-stranded DNA, one strand shown
Medium: in vitro
Concentration: not given
Setting: 8-mer, flanks averaged, mean of 2 arrays, mostly near background
Relative to: not given
Direction: higher = stronger binding
Residues (chain): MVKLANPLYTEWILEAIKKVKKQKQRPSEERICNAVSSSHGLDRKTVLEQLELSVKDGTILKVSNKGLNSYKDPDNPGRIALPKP
Sequence | E-score
GATTATCA | -0.107
ACCGGTGC | 0.17
AGCGAACT | -0.193
ACATTTTC | -0.0298
CTAAACAG | -0.139
CGGACGTA | 0.249
TAGTCAAA | -0.191
GATTGGGC | -0.0444
GCAAGTCC | -0.132
CCAATCGC | -0.0433
AGTATACG | 0.0543
ACGCTGAG | 0.099
AGCGTATC | 0.222
ATCACCGA | -0.0983
AAGCATGA | 0.0142
CCGTGCCG | 0.373
GGTTCGCA | 0.105
GCCCTTAC | 0.0188
CCCAAGCG | 0.112
GTGTGCTA | -0.0966

A few entries again (sample 5):
Sequence | E-score
CCGTGCCG | 0.373
AGCGAACT | -0.193
GCAAGTCC | -0.132
ATCACCGA | -0.0983
ACGCTGAG | 0.099
